Experimental data of several laboratories.
Parts stem from different laboratories: compare values within a part only. Substitutions count along the parent as printed.

Block 1 — technique: RNA Bind-n-Seq; form: RNA; sample: in vitro; tested at: 20 nM; setting: 6-mer, flanks averaged, single round; added: 150 mM LiCl; baseline: input library; reading: higher = stronger binding
Target: TAR DNA-binding protein 43, full length, His tag (TARDBP, Homo sapiens, UniProt Q13148, residues 1-414)
| Strand | 6-mer enrichment (R) |
| --- | --- |
| CGUUUC | 0.948 |
| UCCGGA | 0.898 |
| AAUUGA | 0.903 |
| GGGCAC | 1.05 |
| UUGUGA | 1.17 |
| CUACGG | 0.845 |
| GAGGUA | 1.08 |
| UGGCAC | 1 |

Block 2 — technique: RNA Bind-n-Seq; form: RNA; sample: in vitro; tested at: 1 µM; setting: whole 134-nt RNA, ends assumed; added: 150 mM KCl; baseline: input library; reading: higher = stronger binding
Target: Ras GTPase-activating protein-binding protein 1, C-terminal RGG region (G3BP1, Homo sapiens, UniProt Q13283)
Sequence of UniProt Q13283 (whole entry, looked up): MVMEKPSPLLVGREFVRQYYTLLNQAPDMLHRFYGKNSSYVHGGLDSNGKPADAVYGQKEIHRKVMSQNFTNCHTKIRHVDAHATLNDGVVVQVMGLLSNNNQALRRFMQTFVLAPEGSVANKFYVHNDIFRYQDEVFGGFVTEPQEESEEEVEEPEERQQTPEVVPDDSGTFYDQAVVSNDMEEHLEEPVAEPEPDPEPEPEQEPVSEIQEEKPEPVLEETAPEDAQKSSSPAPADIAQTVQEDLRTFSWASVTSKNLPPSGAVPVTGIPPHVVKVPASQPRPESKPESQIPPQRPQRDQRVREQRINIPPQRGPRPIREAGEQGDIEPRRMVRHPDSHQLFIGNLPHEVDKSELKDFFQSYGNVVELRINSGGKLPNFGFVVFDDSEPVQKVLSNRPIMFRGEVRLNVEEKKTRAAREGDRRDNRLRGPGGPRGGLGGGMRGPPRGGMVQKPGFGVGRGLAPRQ
| Strand | log2 enrichment |
| --- | --- |
| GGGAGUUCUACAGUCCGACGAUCUGUCUCGAGCAGGGGACAAGACGUUCGAGGAGUACCUGGAUGAGUAUUACCGGCUGGACUACGAGGACAUCAUCGACGACCUGCCCUGUCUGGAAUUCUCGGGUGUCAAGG | -1.25 |
| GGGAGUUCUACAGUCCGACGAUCCAAGUCCUGUGCUACACAUCGUAUGUACCGAAUCGGGGUUUGGGGUGGGGUGGGGAAAGUAUUAUGUUACGCCGUUCGGAUCUGCACUUCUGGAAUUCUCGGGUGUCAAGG | 2.39 |
| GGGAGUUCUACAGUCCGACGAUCUGCAUGUGCACUGAUAGGCCAAGGCCAGCUGAACCAGGCCAUGAAAAUCCUACAAAAAGCUGAAGGUUGGAAGUUUGUUAAACUUAUCUGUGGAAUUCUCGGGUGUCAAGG | -2.06 |
| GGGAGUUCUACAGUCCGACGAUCUGGCCCUGGUGGCAUGCGGGGAGGAAGAGGUGGCCUCAUGGAUCGUGGUGGUCCCGGUGGAAUGUUCAGAGGUGGCCGUGGUGGGGACAGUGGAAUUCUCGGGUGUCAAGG | 3.71 |
| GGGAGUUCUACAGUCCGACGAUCUCCUGUGCUACACAUCGUAUGUACCGAAUCGGGUUUUUUGGGUUUUUUGGGUUUUUUGGAAAGUAUUAUGUUACGCCGUUCGGAUCUGCAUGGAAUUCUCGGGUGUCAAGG | -0.442 |
| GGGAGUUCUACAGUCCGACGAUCUGCUGUGUCACCGGGAACGCAAAGGCUGGGAAGAAGGCCCUUCUCAAAAUGGACUGGUGUUGCAGGGUGAGAAGCUGCCCCCUGACUUCAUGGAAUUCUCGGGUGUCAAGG | -0.759 |
| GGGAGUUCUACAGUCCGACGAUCCUGUGCUACACAUCGUAUGUACCGAAUCGGGAAAAAAAGGGAAAAAAAGGAAAAAAAGGGGAAAGUAUUAUGUUACGCCGUUCGGAUCUGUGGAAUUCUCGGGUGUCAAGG | -1.52 |
| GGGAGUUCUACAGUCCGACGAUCCACAGACAACACGCACCCACACAGACACAGAGGGAAGGAAAUGGGAUGGGGACAGGGUGCACAGCAGGGCGGGGUAGGACCCCAGCCCCUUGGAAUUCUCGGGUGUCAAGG | -0.0526 |

Block 3 — technique: universal PBM; form: double-stranded DNA, one strand shown; sample: in vitro; tested at: not given; reading: higher = stronger binding
Target: Sal-like protein 4, full length isoform B (SALL4, Homo sapiens, UniProt Q9UJQ4-2, residues 1-616)
Setting: 8-mer, flanks averaged, mean of replicates
Target sequence (chain): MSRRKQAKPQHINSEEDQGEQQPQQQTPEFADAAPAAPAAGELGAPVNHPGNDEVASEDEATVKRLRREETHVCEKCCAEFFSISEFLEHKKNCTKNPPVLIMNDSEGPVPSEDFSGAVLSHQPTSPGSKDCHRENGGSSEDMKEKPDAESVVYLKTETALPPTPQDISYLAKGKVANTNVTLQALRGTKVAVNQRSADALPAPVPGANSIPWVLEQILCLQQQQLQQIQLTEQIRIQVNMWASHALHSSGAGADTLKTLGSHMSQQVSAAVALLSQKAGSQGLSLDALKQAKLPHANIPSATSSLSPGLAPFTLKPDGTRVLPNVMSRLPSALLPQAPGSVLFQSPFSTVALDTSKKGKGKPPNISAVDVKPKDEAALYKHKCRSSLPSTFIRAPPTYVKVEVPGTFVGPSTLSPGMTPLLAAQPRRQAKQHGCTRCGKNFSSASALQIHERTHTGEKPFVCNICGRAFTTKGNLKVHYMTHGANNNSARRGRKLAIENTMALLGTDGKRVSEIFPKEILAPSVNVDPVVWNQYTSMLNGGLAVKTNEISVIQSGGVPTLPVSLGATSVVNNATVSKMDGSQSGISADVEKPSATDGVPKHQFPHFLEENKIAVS
| Strand | E-score |
| --- | --- |
| CCACAACG | -0.109 |
| GCCTACGC | -0.146 |
| AGTATGTC | 0.086 |
| CATTAATG | 0.337 |
| ATCCAAGA | 0.0222 |
| CCGTGCGC | -0.324 |
| GCACTATA | 0.12 |
| GGTATTGA | 0.0895 |

Block 4 — target: CCNB3, cyclin fold, Cln2 fusion (human); technique: yeast growth competition, sequencing; sample: yeast; setting: strong parent motif; baseline: not given; reading: higher = stronger binding; parent: viral docking peptide; TSVRRALFTGGSD
| Change | normalised enrichment score |
| --- | --- |
| L7H | -0.0198 |
| T9V | 2 |
| R4V | 0.56 |
| G10E | 3.12 |
| R4T | 0.234 |
| G11P | 2.45 |
| S12A | 1.47 |
| A6W | 0.316 |
| T9I | 1.28 |
| V3I | 1.28 |
| R5A L7A | -0.0695 |
| L7F | -0.0383 |
| F8L | 0.445 |
| G11D | 2.43 |
| G11I | 1.63 |
| F8E | -0.436 |
| T1A | 1.7 |
| F8A | 0.0436 |

Other studies, line by line
| Substance | target | test | system | setting | how to read | quantity | value |
| --- | --- | --- | --- | --- | --- | --- | --- |
| PhoQ, residues 284 288 289 292 302 303 SSYNSA | PhoP, residues 12 14 15 18 19 LYFRQ (Escherichia coli, UniProt P23836) | Sort-seq, measured: YFP reporter | E. coli | PhoQ-PhoP variant library, added: 10 µM Mg2+ | baseline: high Mg2+ state, higher = stronger signaling | fold induction | 15 |

For quick reference, copied from above (block 4):
| Change | normalised enrichment score |
| --- | --- |
| G11P | 2.45 |
| S12A | 1.47 |
| A6W | 0.316 |
| T9I | 1.28 |
| V3I | 1.28 |
